Experimental data from different studies.
Each line is one published result; not all experiments were run side by side. Several values in a cell are separate wells, animals, samples, runs or records.
Target: 5-hydroxytryptamine receptor 2A (HTR2A, Homo sapiens, UniProt P28223)

CCN(CC)CCOc1ccc(-c2nnn(Cc3ccc(OC)cc3)c2N)cc1  inhibition (radioligand binding; HEK293; 10 µM, safety profiling): 13.1%
COc1ccccc1N1CCN(CCCCN2CCCc3ccccc3C2=O)CC1  inhibition (radioligand binding; concentration not given, with: [3H]ketanserin): 93.5%
O=C(O)c1ccc(-c2nc(-c3ccccc3Cl)c3sccn23)cc1  specific binding (radioligand binding, safety screen panel; 10 µM; relative to: control): 121% and 130%
COc1c(O)c(Cl)c2c3c1-c1cc4c(cc1CC3N(C)CC2)OCO4 (racemic)  apparent Kb (calcium flux, antagonist, FLIPR; HEK293; with: serotonin): 130 nM
CS(C)(=O)=Nc1ccc(-c2ccc(-c3nc4cc(O[C@@H]5CO[C@H]6[C@@H]5OC[C@H]6O)[nH]c4cc3F)cc2)cc1  inhibition (calcium signal, antagonist; 10 µM): -1%
C[C@H](CCC(=O)O)[C@H]1CC[C@H]2[C@@H]3[C@H](OS(=O)(=O)O)C[C@@H]4C[C@H](O)CC[C@]4(C)[C@H]3C[C@H](O)[C@]12C  inhibition (beta-arrestin recruitment, antagonist, PathHunter enzyme fragment complementation; PathHunter GPCR cell line; 100 µM, with: EC80 agonist): -20%
CO[C@@H](C)c1c(NC(=O)Nc2cnc(-n3nccn3)c(C(F)(F)F)c2)cnc2sc(C)nc12  inhibition (ligand displacement, radioligand; 10 µM): -6.2%
Cc1cc(Nc2nc(C[C@@]3(C(=O)O)CCN(Cc4cccc(Cl)c4F)[C@H](C)C3)cc(C)c2F)[nH]n1  activation (agonist; 10 µM): 0.3%
Cc1cc(-c2ccc3ccccc3c2)nnc1NCCN1CCN(C)CC1  activity (antagonist; 10000 nM; relative to: control): 2%
CCc1nnc(-c2c(OC)cc(-c3cnc4cc(-c5cnn(C)c5)ccn34)cc2OC)o1  remaining binding (agonist radioligand, radioligand binding; 10 µM, SafetyScreen44 5-HT2A mean; lower = stronger displacement): 113%
Cc1sc2c(c1C)C(c1ccc(Cl)cc1)=NC(CC(=O)OC(C)(C)C)c1nnc(C)n1-2 (stereo not drawn)  remaining binding (ligand displacement, radioligand; 1 µM): 76.3%
O=C1c2ccccc2CCCN1CCCCN1CCN(c2cccc(Cl)c2Cl)CC1  inhibition (radioligand binding; concentration not given, with: [3H]ketanserin): 101%
COc1ccc(F)cc1S(=O)(=O)Nc1cnc2c(c1)C(=O)NCCO2  inhibition (ligand displacement, radioligand; 10 µM): -1%
CCOC(=O)[C@](CC)(CCCSCCOCCOCCNC(=O)c1ccc(-c2c3ccc(=N)c(S(=O)(=O)O)c-3oc3c(S(=O)(=O)O)c(N)ccc23)c(C(=O)O)c1)NC(=O)c1ccc(C2CC2)c(Cc2ccc(F)cc2)n1  inhibition (ligand displacement, radioligand; 10 µM): 5%
C[C@H](NCc1ccc(-c2ccc(C(F)(F)F)cc2)cc1)C(N)=O  inhibition (radioligand binding, SafetyScreen panel; 1 µM, species human, with: 0.50 nM [3H]Ketanserin): -3%
N[C@H](C(=O)N1CCCC1)C1CCN(c2nccc3c(-c4ncc(Cl)cc4Cl)cccc23)CC1  response (functional response, agonist; 10 µM): 0%
COc1ncc2nc(C)n(Cc3ncc(S(N)(=O)=O)cc3F)c2c1-c1ccccc1  inhibition (cells; 10 µM): -22.3%
C/C(=N\OCCCN1CCCCC1)c1ccc(C(F)(F)F)cc1  activation (agonist, IP-One; 10 µM): 3.06%

Excerpt of the above:
Cc1cc(-c2ccc3ccccc3c2)nnc1NCCN1CCN(C)CC1  activity (antagonist; 10000 nM; relative to: control): 2%
CCc1nnc(-c2c(OC)cc(-c3cnc4cc(-c5cnn(C)c5)ccn34)cc2OC)o1  remaining binding (agonist radioligand, radioligand binding; 10 µM, SafetyScreen44 5-HT2A mean; lower = stronger displacement): 113%
Cc1sc2c(c1C)C(c1ccc(Cl)cc1)=NC(CC(=O)OC(C)(C)C)c1nnc(C)n1-2 (stereo not drawn)  remaining binding (ligand displacement, radioligand; 1 µM): 76.3%
